Experimental data from different studies.
A part holds a random share of what one study measured. Positions count from the first letter of the parent shown.

Set 1 — technique: competition protein-binding microarray; form: double-stranded DNA, one strand shown; sample: in vitro; concentration: 2 µM; together with: Cbf1 competitor, 0.05 µM; direction: higher = stronger binding; measurement: fluorescence intensity
Target: Phosphate system positive regulatory protein PHO4, full length, GST-tagged (PHO4, Saccharomyces cerevisiae, UniProt P07270, residues 1-312)
Notes: whole 60-bp probe, lowest competitor level
Residues (chain): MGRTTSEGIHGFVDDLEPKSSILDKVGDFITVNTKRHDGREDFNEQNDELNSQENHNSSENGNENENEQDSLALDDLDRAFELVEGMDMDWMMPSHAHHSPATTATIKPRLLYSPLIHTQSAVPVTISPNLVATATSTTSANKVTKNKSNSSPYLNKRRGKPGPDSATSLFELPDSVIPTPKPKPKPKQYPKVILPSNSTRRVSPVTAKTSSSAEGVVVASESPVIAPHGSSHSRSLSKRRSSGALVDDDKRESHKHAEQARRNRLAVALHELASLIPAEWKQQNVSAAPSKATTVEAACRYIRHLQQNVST
Oligonucleotide = CTGATGTCTGTTTTCAACATGATGTCCAATGGTGCCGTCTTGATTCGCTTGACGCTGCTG; result = 6030 a.u.
Oligonucleotide = CAAGATCTTTGGCAAAACGTGGACCCCAACTTCGAAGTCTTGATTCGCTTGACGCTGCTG; result = 12600 a.u.
Oligonucleotide = GGCCACCAAAGTCCACACGTTGCGCTTGCCTTTTTGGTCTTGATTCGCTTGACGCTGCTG; result = 11700 a.u.
Oligonucleotide = CATACCCAACCTTGCGACGTGGGTGAAGATATTTGTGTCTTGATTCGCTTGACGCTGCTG; result = 7580 a.u.
Oligonucleotide = TCATGAGATTGGATGATCGTGCCGATAGACTAGCAGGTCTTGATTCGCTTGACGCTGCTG; result = 7230 a.u.
Oligonucleotide = AAATTACTAAGTTTTCACGTGCCCTACCCCGTATGAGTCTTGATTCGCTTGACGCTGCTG; result = 15900 a.u.
Oligonucleotide = ACCATGGTGCGAAGTTGCATGACAACCCGGACGAATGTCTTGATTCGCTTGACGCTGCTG; result = 5410 a.u.
Oligonucleotide = CGGGGTTAAGTTTGCCCTGTGGGTGGCTTGCAGCAGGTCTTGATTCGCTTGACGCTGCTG; result = 5500 a.u.
Oligonucleotide = AATATGCACTGCAACTTCGTGCTTTATTTCAATATCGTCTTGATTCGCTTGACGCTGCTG; result = 8190 a.u.
Oligonucleotide = TTTTTCTACAAAATGCACATGACAGGATGACCTTCCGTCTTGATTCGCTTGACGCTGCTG; result = 7670 a.u.
Oligonucleotide = AAAACCCTAACAATACACATGATGCAACTGGAACGCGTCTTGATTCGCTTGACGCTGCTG; result = 7630 a.u.
Oligonucleotide = AAATTACTAAGTTGAGACGTGGGTGACGCCGTATGAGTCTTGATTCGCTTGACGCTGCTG; result = 5640 a.u.
Oligonucleotide = GCCTATAACAGCACCAACGTGCGGAATACTGATTGCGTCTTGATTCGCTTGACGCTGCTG; result = 12600 a.u.
Oligonucleotide = ACTGCAGTAATTCTCCACATGGGCCCAGCCACTGAGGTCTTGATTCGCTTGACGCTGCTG; result = 9190 a.u.
Oligonucleotide = CTAACGAAGGTTTGAGAAGTGGGTGACAAGCCAAGTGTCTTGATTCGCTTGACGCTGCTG; result = 3510 a.u.
Oligonucleotide = CTTTCCCGATCTTTTCACGTGTGGTTAGCACATTTGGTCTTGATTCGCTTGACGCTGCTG; result = 12300 a.u.
Oligonucleotide = CCTCGGAAAAACCTCCACGTGTTGGGTTATTCCGCCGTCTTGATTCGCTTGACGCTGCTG; result = 18200 a.u.
Oligonucleotide = TAGTAATGTGCAAGTGATGTGGCGAGATGGTCCTTTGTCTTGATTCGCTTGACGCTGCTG; result = 4880 a.u.
Oligonucleotide = GGGTTATCGTAGTGAGTCGTGGCCGCAACGATAGCAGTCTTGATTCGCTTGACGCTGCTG; result = 5630 a.u.
Oligonucleotide = CTTTCCCGATCTTGTCACGTGGGTGTAGCACATTTGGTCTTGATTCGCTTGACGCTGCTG; result = 16800 a.u.
Oligonucleotide = CGTCCTAGCGATTGACCGGTGGGTGCCATGAGGAAGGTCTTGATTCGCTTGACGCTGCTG; result = 6640 a.u.
Oligonucleotide = GCTTTTCCTAACGCGAACGTGCAAAGCATCGTTATTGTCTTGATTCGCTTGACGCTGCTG; result = 12000 a.u.
Oligonucleotide = CATACCCAACCTTGTCACCCGACTTAAGATATTTGTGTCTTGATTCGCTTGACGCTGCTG; result = 3550 a.u.
Oligonucleotide = TGGCGGCGGGATCTACACGTGCGCCTCGGGAAGGCGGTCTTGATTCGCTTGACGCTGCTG; result = 16400 a.u.
Oligonucleotide = TGCGCAACAACTTGGCGGGTGGGTGTATGTCTAGAAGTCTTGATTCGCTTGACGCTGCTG; result = 4340 a.u.

Set 2 — technique: DHFR PCA, deep sequencing; sample: yeast; together with: (+)-ABA 0.0091 µM; reference: wild-type fitted maximum; direction: higher = stronger binding; measurement: relative binding score
Target: ABI1, truncated, D143A, DHFR fusion (Arabidopsis thaliana)
Notes: methotrexate growth selection, single substitutions
Starting sequence: PYL1, truncated, DHFR fusion (Arabidopsis thaliana); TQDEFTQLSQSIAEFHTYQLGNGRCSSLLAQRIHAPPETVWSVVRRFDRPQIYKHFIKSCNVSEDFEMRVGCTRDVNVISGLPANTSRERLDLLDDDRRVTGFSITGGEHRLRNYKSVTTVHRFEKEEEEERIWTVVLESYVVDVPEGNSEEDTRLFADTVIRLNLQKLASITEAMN
Substitution = S150N; result = 25.1%
Substitution = L156R; result = 3.95%
Substitution = S104P; result = -0.807%
Substitution = F157M; result = 0.383%
Substitution = L156Q; result = 4.13%
Substitution = S171G; result = 7.63%
Substitution = T135C; result = 8.05%
Substitution = G21M; result = 9.21%
Substitution = V161S; result = 4.14%
Substitution = R88Q; result = 24.4%
Substitution = Y141T; result = -3.67%
Substitution = G148M; result = -5.09%
Substitution = R74K; result = -0.268%
Substitution = G21D; result = 24.7%
Substitution = I52L; result = 45.1%
Substitution = T160A; result = 8.89%
Substitution = F103D; result = 2.79%
Substitution = F15R; result = 1.61%
Substitution = L82R; result = 9.8%
Substitution = V145S; result = -3.52%
Substitution = F124Y; result = 16.9%
Substitution = D3T; result = 17.5%
Substitution = Q2K; result = 21.9%
Substitution = N85T; result = 68.5%

Set 3 — technique: RNA Bind-n-Seq; form: RNA; sample: in vitro; concentration: 365 nM; reference: no-protein control; direction: higher = stronger binding; measurement: RBNS enrichment (R)
Target: RNA binding protein fox-1 homolog 2, RRM domain, GST-SBP tag (RBFOX2, Homo sapiens, UniProt O43251-10, residues 100-194)
Notes: natural RNA segment, single round, ends assumed
Construct (chain): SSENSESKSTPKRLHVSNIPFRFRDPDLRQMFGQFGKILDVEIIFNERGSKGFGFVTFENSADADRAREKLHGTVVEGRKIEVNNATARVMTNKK
Oligonucleotide = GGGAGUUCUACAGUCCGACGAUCAAGCAUCUUCAGUGCUCACAAUCAUGUGUCCCCUAGCCUCACCCCUGCAGUUCAGGCCUGUUUCUGUCAGAGUCAGGAACAUCUCUGAAUUAUGGAACAUUGUCUGUACCUGGAAUUCUCGGGUGCCAA; result = 0.266
Oligonucleotide = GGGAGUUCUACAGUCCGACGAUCUAGUGACAAUUCAACUUUUUAUGCUAUGACCAGGGGUGGAUCUAAAUUUUAUGGGGCUGAAAGCUUGAAUUAUUUAGAAAGACUUCUUUAAGAAAAACAAUGUUAAUAUAUGGAAUUCUCGGGUGCCAA; result = 1
Oligonucleotide = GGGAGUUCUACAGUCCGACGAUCUAAACAUUGUGCCAAGAAACGAUUUGUGGGAUUCAUGUCCCGAAACCAUUAAAUCUAUUGUUUGGAAAGUCUGCAGUCCUGAGGAGGGCUUGCUCACUGGACACCCACAGUGGAAUUCUCGGGUGCCAA; result = 0.347
Oligonucleotide = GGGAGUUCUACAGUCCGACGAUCAGGGAUAAGGCUUCAGUGCUGUUGGGAGCCCUCUGGCUCCAAAUGUCUGACUAUCUUGAGGGAGAAACAAGCAGGUUUCUACUAGUGGUGUCUUCUGUUGUAUUAACUUCUGGAAUUCUCGGGUGCCAA; result = 0.372
Oligonucleotide = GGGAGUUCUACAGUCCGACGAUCCACUUGCUGUCCGGUUUCCUAGGGGCUUCCUGUGCCCCUUCCCCAGCUAUCCUCCAGGUGGCUAGGGACAGUCUAUUCUGCUGCAACUGGAAAGUAGAGGGAACCGGCACUGGAAUUCUCGGGUGCCAA; result = 0.322
Oligonucleotide = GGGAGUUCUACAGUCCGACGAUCGAAACUAGUAGCUAACAUUGCUUCUGGAGAGCAGAAAUAAGCAUGUCUUCUGGCUACUAAGUGAUAAAAAGAACAUUAACAACCUUUAAUUACCUUCCUAGUGGGAACUUUGGAAUUCUCGGGUGCCAA; result = 0.606
Oligonucleotide = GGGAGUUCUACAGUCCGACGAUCCACUCCCAGGUGCAUGCUUCAGUGAGUGCCACAUGCCACUAGCUUUUACCAAUAACCAUAUUCUGGCUUAUUCUCCUACCCUCUGCUUCCAUUCAAUCUUCCCCACUAGGUGGAAUUCUCGGGUGCCAA; result = 3.3
Oligonucleotide = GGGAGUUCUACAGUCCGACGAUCUCUGGCUUCCUGGUAGAGGGCGGCAUGCCGAAGGGUCUGCUGGGUGUGGAUUGGAUGCUGGGGUGUGGGGGUUGGAAGCUGUCUGUGGCCCACUUGGGCACCCACGCUUCUGGAAUUCUCGGGUGCCAA; result = 0.93
Oligonucleotide = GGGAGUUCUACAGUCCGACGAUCGAUUUCUAAAUGGUUCUGGAUUCCAUGUUUUCUCUAUUCGUUUAGAAGAAGUUGGAGGAUGGUGCUGAAUGCAGUUUUGUUUAUUCCAAGAAAAAAUAUUUAUAAUAAAAUGGAAUUCUCGGGUGCCAA; result = 0.545
Oligonucleotide = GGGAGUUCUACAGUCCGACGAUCAUGCUUUGUUUGGAUAUGGAGUGAACACAAUUAUGUACCAAAUUUAACUUGGCAAACUUUCUAUUGCCUGUCCCAUGUGCAUCUUAUUUAAAAUUUCCCCCAUGGAAAUCUGGAAUUCUCGGGUGCCAA; result = 1.08
Oligonucleotide = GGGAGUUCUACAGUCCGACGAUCCUCUCCAGUCAAAGAAACAAAGCUAAUUGAAAUAAUGUACAUUUGGUUCAGUCUGUCAGGCAAGUACAAAUCCAUAACAAAAAAAAUUAAUAGUAUGCUCUUUGCUUUGGUGGAAUUCUCGGGUGCCAA; result = 0.633
Oligonucleotide = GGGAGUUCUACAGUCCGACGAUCCACCAGCAGCACCCAGAGCCGCUCCUUGCUGCCCUAGAACUAGCAGUUAAAAGACUCCAGAAGCCUGUCUCCCCUGCCUGUGUCUGCUCUCCCUCUAUGUCUAUGGUGUCUGGAAUUCUCGGGUGCCAA; result = 0.883

Mixed results
B1: KAT6A 1-85 (Homo sapiens, UniProt Q92794); sequence looked up; chain MVKLANPLYTEWILEAIKKVKKQKQRPSEERICNAVSSSHGLDRKTVLEQLELSVKDGTILKVSNKGLNSYKDPDNPGRIALPKP
Molecule = B1 (KAT6A 1-85); partner = itself; assay = crystal structure; measurement = binding; result = binds

A few entries again (set 1):
Oligonucleotide = AAATTACTAAGTTTTCACGTGCCCTACCCCGTATGAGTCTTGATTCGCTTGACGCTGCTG; result = 15900 a.u.
Oligonucleotide = ACCATGGTGCGAAGTTGCATGACAACCCGGACGAATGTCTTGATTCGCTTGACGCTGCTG; result = 5410 a.u.
Oligonucleotide = CGGGGTTAAGTTTGCCCTGTGGGTGGCTTGCAGCAGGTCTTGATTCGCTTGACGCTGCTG; result = 5500 a.u.
Oligonucleotide = AATATGCACTGCAACTTCGTGCTTTATTTCAATATCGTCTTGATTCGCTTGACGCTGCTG; result = 8190 a.u.
Oligonucleotide = TTTTTCTACAAAATGCACATGACAGGATGACCTTCCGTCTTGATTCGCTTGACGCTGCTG; result = 7670 a.u.
